Measured values pooled from the literature.
Compare with care: the assays were run in different laboratories. ± marks the error that the study gave.
dncV: dncV (Vibrio cholerae, UniProt Q9KVG7)

`CCCCCCCCN1CCC23c4c5ccc(O)c4OC2c2nc4ccccc4cc2CC3(O)C1C5` (stereo not shown) gave an Emax of 23% (Delta-type opioid receptor, with β-arrestin1 (OPRD1, Homo sapiens, UniProt P41143); human cells).
The Emax decrease of `CCCCCn1cc(C(=O)c2cccc3c2CC(C)(C)C3)c2ccccc21` is reported as ~50% (CNR1 (Homo sapiens, UniProt P21554, I267L); Gαi1 engagement, agonist, BRET; reference: wild type).
`Nc1nc2c([C@@H]3O[C@@H]4COP(=O)(O)O[C@H]5[C@@H](O)[C@H](c6snc7c(=O)[nH]c(N)nc67)O[C@@H]5COP(=O)(O)O[C@H]4[C@H]3O)snc2c(=O)[nH]1`: “cyclization rate constant k2” 0.0034 ± 0.0002 s⁻¹ (dncV; substrate, HPLC; 500 µM, 37 °C).
For `CC(=O)N[C@@H](CCC(=O)O)C(=O)N[C@@H](CCC(N)=O)C(=O)N[C@H](C(=O)N[C@@H](CCC(=O)O)C(=O)N[C@@H](CC(C)C)C(=O)N[C@@H](CCC(=O)O)C(=O)N[C@@H](Cc1ccccc1)C(=O)N[C@@H](CC(=O)O)C(=O)O)C(C)C`, the unfolding rate was 11.6 %/h (Beta sliding clamp (Escherichia coli, UniProt P0A988); urea HDX-MS; concentration not given, 25 °C, with: urea 4 M).
Under “rate constant k1”, `Nc1nc2c([C@@H]3O[C@@H]4COP(=O)(O)O[C@H]5[C@@H](O)[C@H](c6scc7c(=O)[nH]c(N)nc67)O[C@@H]5COP(=O)(O)O[C@H]4[C@H]3O)scc2c(=O)[nH]1` is recorded as 0.308 ± 0.03 M⁻¹ s⁻¹ (dncV; substrate, HPLC).
The particle size of `COc1ccc2cc(C(CC(=O)O)CC(=O)O)ccc2c1` is reported as 15 to 17 nm (Nucleoprotein (Influenza A virus, UniProt P15682); NP–RNA complex).
With `CCCCCn1cc(C(=O)c2ccc3c(c2)CC(C)(C)C3)c2ccccc21` the Emax was 26.3 ± 3.6% (CNR2 (Homo sapiens, UniProt P34972, L182I); Gαi1 engagement, agonist, BRET; reference: reference agonist at wild-type CB2).
With `COc1ccc2cc(-c3c(C(=O)O)cccc3C(=O)O)ccc2c1` the inhibition was 29% (Nucleoprotein, monomeric (Influenza A virus, UniProt P15682); 1 µM).
For `CCCCCn1cc(C(=O)c2cccc3ccccc23)c2ccccc21`, the Emax reduction was ~50% (CNR1 (Homo sapiens, UniProt P21554, L193I); Gαi1 engagement, agonist, BRET; reference: wild type receptor).
With `NCCCCCCCCN1CCC23c4c5ccc(O)c4OC2c2nc4ccccc4cc2CC3(O)C1C5` (stereo not shown) the Emax was 60 ± 2% (Delta-type opioid receptor, with Gi1 (OPRD1, Homo sapiens, UniProt P41143); human cells).

A few entries again:
`Nc1nc2c([C@@H]3O[C@@H]4COP(=O)(O)O[C@H]5[C@@H](O)[C@H](c6snc7c(=O)[nH]c(N)nc67)O[C@@H]5COP(=O)(O)O[C@H]4[C@H]3O)snc2c(=O)[nH]1`: “cyclization rate constant k2” 0.0034 ± 0.0002 s⁻¹ (dncV; substrate, HPLC; 500 µM, 37 °C).
